Published values pooled from the literature.
Each numbered part is a random draw from the data of one study; scales do not carry over between parts. “And” joins repeats or separate records; there may be more than shown.
Chain of UniProt O00238 (whole entry, looked up): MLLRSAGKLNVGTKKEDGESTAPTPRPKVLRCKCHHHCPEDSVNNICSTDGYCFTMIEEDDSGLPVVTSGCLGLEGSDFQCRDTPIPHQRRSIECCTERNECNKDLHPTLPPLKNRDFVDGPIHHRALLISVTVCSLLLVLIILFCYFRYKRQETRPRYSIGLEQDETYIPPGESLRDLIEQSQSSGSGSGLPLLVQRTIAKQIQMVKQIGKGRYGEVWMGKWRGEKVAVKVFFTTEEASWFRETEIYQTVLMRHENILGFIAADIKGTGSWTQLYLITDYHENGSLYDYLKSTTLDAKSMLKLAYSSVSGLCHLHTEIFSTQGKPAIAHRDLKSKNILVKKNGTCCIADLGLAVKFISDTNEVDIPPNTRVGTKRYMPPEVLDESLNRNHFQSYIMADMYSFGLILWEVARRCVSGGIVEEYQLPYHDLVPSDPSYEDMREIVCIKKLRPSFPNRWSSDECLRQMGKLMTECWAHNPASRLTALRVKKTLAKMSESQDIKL
Chain of UniProt Q12851 (whole entry, looked up): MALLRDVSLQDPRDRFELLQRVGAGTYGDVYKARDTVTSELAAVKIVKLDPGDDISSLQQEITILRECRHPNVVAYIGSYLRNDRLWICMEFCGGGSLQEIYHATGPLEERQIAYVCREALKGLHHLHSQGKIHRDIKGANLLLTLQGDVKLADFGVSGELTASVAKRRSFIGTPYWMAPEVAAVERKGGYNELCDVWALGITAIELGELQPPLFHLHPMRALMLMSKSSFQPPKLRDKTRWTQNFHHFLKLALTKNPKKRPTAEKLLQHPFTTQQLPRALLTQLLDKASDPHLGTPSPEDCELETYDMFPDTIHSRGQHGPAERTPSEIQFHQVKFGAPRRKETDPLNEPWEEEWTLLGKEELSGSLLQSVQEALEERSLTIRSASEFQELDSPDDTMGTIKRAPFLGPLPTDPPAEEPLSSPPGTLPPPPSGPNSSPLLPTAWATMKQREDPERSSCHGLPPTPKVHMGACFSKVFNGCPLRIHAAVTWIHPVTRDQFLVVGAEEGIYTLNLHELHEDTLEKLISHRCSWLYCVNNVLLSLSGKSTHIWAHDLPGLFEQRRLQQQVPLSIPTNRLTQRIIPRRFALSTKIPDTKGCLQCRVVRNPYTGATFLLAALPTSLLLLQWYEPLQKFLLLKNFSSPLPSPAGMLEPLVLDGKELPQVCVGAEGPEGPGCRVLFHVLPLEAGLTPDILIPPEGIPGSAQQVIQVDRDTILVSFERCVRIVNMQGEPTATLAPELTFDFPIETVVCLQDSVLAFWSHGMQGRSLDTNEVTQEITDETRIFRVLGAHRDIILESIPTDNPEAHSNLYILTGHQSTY
Chain of UniProt P29322 (whole entry, looked up): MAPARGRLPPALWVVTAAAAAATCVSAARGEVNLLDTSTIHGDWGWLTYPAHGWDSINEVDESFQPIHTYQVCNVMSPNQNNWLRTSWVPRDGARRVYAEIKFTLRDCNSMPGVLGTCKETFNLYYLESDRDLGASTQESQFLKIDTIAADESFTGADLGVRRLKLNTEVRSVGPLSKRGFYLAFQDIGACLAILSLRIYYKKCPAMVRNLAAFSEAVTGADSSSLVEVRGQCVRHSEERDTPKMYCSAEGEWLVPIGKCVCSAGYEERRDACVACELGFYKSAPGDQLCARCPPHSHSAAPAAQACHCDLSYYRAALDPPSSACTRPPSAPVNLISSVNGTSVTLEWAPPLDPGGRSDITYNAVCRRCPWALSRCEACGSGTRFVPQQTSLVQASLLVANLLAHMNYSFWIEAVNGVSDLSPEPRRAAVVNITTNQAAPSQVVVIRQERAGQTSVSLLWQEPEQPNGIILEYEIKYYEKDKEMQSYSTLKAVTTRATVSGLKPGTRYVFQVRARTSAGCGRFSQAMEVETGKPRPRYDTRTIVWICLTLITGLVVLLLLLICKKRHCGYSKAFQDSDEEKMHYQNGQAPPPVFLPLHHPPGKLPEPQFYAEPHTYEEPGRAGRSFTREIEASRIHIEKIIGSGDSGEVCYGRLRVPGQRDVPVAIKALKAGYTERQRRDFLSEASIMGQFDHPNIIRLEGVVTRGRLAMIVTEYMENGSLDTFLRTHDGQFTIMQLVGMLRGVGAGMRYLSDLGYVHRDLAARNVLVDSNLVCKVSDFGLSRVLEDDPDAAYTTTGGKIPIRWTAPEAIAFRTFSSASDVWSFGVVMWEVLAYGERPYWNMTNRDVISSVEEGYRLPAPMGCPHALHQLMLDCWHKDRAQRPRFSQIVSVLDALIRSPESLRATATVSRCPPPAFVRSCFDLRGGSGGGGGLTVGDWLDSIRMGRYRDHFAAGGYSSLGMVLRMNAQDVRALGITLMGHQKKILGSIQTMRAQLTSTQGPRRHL
Chain of UniProt Q9Y6R4 (whole entry, looked up): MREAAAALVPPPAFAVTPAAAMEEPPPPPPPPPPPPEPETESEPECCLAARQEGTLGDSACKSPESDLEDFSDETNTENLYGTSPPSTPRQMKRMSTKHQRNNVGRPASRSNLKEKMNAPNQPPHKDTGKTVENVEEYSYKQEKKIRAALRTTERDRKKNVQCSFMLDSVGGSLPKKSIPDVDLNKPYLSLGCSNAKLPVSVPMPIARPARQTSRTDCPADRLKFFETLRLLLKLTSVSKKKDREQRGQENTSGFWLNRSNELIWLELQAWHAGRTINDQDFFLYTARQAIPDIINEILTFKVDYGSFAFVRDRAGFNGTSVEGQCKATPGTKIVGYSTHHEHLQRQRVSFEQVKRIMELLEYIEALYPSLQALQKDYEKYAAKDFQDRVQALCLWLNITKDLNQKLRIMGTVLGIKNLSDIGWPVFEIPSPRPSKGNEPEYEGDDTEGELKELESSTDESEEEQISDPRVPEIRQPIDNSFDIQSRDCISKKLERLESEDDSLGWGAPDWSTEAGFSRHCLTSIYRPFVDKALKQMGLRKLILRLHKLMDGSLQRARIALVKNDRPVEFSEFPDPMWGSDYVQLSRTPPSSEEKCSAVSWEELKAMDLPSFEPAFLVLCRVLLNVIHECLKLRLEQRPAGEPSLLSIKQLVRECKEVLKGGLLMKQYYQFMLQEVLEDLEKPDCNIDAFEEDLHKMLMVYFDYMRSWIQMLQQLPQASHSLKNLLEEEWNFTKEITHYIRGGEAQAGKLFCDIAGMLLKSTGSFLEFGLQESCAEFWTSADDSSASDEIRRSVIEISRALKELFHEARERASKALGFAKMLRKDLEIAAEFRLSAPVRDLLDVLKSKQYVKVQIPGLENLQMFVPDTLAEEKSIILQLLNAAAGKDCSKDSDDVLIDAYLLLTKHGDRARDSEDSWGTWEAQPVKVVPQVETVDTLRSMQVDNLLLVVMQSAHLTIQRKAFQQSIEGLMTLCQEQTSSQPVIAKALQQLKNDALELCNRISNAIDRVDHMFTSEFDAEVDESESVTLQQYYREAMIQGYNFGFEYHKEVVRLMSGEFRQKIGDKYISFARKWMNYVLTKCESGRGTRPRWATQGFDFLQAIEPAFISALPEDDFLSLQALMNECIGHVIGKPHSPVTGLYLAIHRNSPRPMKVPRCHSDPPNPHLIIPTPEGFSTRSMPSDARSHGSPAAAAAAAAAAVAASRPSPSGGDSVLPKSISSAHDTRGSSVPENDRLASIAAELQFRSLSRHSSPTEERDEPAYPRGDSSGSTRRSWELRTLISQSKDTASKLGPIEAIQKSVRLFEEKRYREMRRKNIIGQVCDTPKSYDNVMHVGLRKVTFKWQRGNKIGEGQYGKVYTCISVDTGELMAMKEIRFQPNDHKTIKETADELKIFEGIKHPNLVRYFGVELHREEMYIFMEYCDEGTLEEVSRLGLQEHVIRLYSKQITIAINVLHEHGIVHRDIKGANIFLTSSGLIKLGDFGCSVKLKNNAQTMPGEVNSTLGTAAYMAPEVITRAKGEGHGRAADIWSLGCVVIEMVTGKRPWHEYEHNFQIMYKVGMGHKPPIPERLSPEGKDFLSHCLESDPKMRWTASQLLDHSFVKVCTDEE
Chain of UniProt O15264 (whole entry, looked up): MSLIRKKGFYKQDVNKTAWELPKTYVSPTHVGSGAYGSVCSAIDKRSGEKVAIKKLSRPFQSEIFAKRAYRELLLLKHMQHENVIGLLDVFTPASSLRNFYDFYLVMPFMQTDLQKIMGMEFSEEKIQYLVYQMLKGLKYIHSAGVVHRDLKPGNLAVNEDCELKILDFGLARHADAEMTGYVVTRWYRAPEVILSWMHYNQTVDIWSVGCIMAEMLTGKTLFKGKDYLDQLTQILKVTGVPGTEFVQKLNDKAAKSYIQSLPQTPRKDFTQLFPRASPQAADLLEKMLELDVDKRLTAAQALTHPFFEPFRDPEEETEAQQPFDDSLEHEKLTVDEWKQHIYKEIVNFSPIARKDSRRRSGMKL
Chain of UniProt Q05655 (whole entry, looked up): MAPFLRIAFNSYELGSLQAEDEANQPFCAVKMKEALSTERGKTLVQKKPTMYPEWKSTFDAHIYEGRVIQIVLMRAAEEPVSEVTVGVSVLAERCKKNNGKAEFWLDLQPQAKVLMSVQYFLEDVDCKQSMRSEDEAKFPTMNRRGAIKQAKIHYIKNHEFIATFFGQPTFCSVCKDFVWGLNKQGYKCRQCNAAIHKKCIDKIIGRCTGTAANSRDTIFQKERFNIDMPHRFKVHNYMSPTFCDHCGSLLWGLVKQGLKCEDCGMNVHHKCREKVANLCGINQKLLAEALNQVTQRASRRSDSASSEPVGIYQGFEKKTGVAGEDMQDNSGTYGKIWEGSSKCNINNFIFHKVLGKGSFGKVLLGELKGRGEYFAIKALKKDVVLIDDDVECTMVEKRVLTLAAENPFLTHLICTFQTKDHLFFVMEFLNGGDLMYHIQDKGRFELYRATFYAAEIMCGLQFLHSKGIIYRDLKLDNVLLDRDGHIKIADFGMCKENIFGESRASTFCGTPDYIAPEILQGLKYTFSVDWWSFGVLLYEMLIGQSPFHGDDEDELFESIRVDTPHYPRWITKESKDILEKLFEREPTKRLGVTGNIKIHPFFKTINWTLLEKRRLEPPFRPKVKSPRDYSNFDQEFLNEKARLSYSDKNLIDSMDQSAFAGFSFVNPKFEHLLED

Study 1
Compound: COc1ccc(Cl)cc1NC(=O)Nc1cc(C)nc2ccccc12
Read-out: enzyme activity
Mode: inhibitor
Tested at: 0.5 µM
Baseline: control
The remaining activity was 89.9% (MAP2K6 (Homo sapiens, UniProt P52564)).
The remaining activity was 94.9% (MAP3K10 (Homo sapiens, UniProt Q02779)).
For NEK4 (Homo sapiens, UniProt P51957): remaining activity read 92%.
For IRAK4 (Homo sapiens, UniProt Q9NWZ3): remaining activity read 99.9%.
It gave 90.3% for remaining activity (MKNK2 (Homo sapiens, UniProt Q9HBH9)).
The remaining activity was 108% (MAPK13 (Homo sapiens, UniProt O15264)).
For AKT3 (Homo sapiens, UniProt Q9Y243): remaining activity read 103%.
The remaining activity was 96.3% (PRKCD (Homo sapiens, UniProt Q05655)).

Study 2
Compound: CC(=O)c1c(NS(C)(=O)=O)c2cc(-c3ccc(Cl)cc3)c(-c3ccc(Cl)cc3Cl)nc2n(C)c1=O
Tested at: 1 µM
For Ribosomal protein S6 kinase alpha-4, N-terminal kinase domain (RPS6KA4, Homo sapiens, UniProt O75676); cell-free assay, competition with immobilised ligand: remaining binding read 87%.
The remaining binding was 96% (Receptor-type tyrosine-protein kinase FLT3, autoinhibited (FLT3, Homo sapiens, UniProt P36888); cell-free assay, competition with immobilised ligand).
MAP4K2 (Homo sapiens, UniProt Q12851); cell-free assay, competition with immobilised ligand — remaining binding: 82%.
It gave 100% for remaining binding (BMPR1B (Homo sapiens, UniProt O00238); cell-free assay, competition with immobilised ligand).
EPHA8 (Homo sapiens, UniProt P29322); cell-free assay, competition with immobilised ligand — remaining binding: 97%.
It gave 67% for remaining binding (NEK3 (Homo sapiens, UniProt P51956); cell-free assay, competition with immobilised ligand).
GSK3B (Homo sapiens, UniProt P49841); cell-free assay, competition with immobilised ligand — remaining binding: 97%.
The remaining binding was 81% (MAP2K1 (Homo sapiens, UniProt Q02750); cell-free assay, competition with immobilised ligand).
STK11 (Homo sapiens, UniProt Q15831); cell-free assay, competition with immobilised ligand — remaining binding: 100%.
For ERN1 (Homo sapiens, UniProt O75460); cell-free assay, competition with immobilised ligand: remaining binding read 77%.
For PIK3CA (Homo sapiens, UniProt P42336, Q546K); cell-free assay, competition with immobilised ligand: remaining binding read 86%.
The remaining binding was 75% (Tyrosine-protein kinase ABL1, non-phosphorylated (ABL1, Homo sapiens, UniProt P00519, F317L); cell-free assay, competition with immobilised ligand).
The remaining binding was 100% (AAK1 (Homo sapiens, UniProt Q2M2I8); binding).
For WEE1 (Homo sapiens, UniProt P30291); cell-free assay, competition with immobilised ligand: remaining binding read 95%.
The remaining binding was 100% (MAP3K3 (Homo sapiens, UniProt Q99759); cell-free assay, competition with immobilised ligand).
The remaining binding was 95% (MAP3K4 (Homo sapiens, UniProt Q9Y6R4); cell-free assay, competition with immobilised ligand).
The remaining binding was 81% (CDC42BPB (Homo sapiens, UniProt Q9Y5S2); cell-free assay, competition with immobilised ligand).
It gave 87% for remaining binding (FLT3 (Homo sapiens, UniProt P36888, D835V/ITD); cell-free assay, competition with immobilised ligand).
For ACVR1B (Homo sapiens, UniProt P36896); cell-free assay, competition with immobilised ligand: remaining binding read 92%.
It gave 100% for remaining binding (Aurora kinase C (AURKC, Homo sapiens, UniProt Q9UQB9); cell-free assay, competition with immobilised ligand).
For CDK17 (Homo sapiens, UniProt Q00537); cell-free assay, competition with immobilised ligand: remaining binding read 100%.
For EGFR (Homo sapiens, UniProt P00533, T790M); cell-free assay, competition with immobilised ligand: remaining binding read 64%.

Study 3
Compound: CC(C)n1cnc(-c2ccc(F)cc2)c1-c1ncc(C(=O)Nc2ccc(N3CCN(C)CC3)cc2)[nH]1
Host: idiopathic pulmonary fibrosis patients
The “adverse event incidence” was 0% (phase 2a trial, refers to: hydroxybutyrate dehydrogenase increased; 30 mg once daily, grade 3).
The “adverse event incidence” was 75% (30 mg twice daily, any adverse event, together with: standard of care).
phase 2a trial, refers to: infection; dose not given, grade 5, all arms pooled — “adverse event incidence”: 0%.
It gave 0% for “adverse event incidence” (phase 2a trial, refers to: chronic gastritis; 60 mg once daily, grade 4).
For phase 2a trial, refers to: ventricular extrasystoles; 60 mg once daily, grade 4: “adverse event incidence” read 0%.
It gave 0% for “adverse event incidence” (phase 2a trial, refers to: hepatic enzyme abnormal; dose not given, grade 2, all arms pooled).
The “adverse event incidence” was 0% (phase 2a trial, refers to: allergic conjunctivitis; 30 mg once daily, grade 3).

Study 4
Host: female C57BL/6 mouse
Matrix: plasma
Route: oral
Dose: 10 mg/kg
With COC(=O)c1cc(Cl)ccc1N(C)C(=O)c1ccn2ncc(-c3ccc(C(N)=O)cc3)c2c1 the Cmax was 32.7 nM.
CCOC(=O)CN(C(=O)c1ccn2ncc(-c3ccc(C(=O)NC)cc3)c2c1)c1ccc(Cl)cc1 gave a Cmax of 293 nM.
For CNC(=O)c1ccc(-c2cnn3ccc(C(=O)N(CC(=O)O)c4ccc(Cl)cc4)cc23)cc1, the Cmax was 50 nM.
The Cmax of CNC(=O)c1ccc(-c2cnn3ccc(C(=O)N(C[C@H]4CCC(=O)O4)c4ccc(OC(F)(F)F)cc4)cc23)cc1 is reported as 31.7 nM.
With CN(C(=O)c1ccn2ncc(-c3ccc(C(N)=O)cc3)c2c1)c1ccc(C#N)cn1 the Cmax was 659 nM.

Study 5
Cell line: mouse MPNST tumor cells
Technique: high-content nuclear imaging
Refers to: cell number
Tested at: 10 µM
Time: 12 h
Notes: mean of 2 replicates
Baseline: plate mean
Direction: higher = more cells
For CC(=O)OCC(=O)[C@@]12OC(C)(C)O[C@@H]1C[C@H]1[C@@H]3C[C@H](F)C4=CC(=O)C=C[C@]4(C)[C@@]3(F)[C@@H](O)C[C@@]12C, the nuclei count was 4.29 z-score.
For CCN(CC)CCOC(=O)C1(C2CCCCC2)CCCCC1, the nuclei count was 3.44 z-score.
For N=C(N)N/N=C/c1c(Cl)cccc1Cl, the nuclei count was -0.948 z-score.
The nuclei count of O=C(C1CCCCC1)N1CC(=O)N2CCc3ccccc3C2C1 (centres unmarked) is reported as 1.93 z-score and 0.753 z-score.
C=CCN1CCc2nc(N)sc2CC1 has a nuclei count of 0.479 z-score.
